Experimental data gathered from unrelated publications.
Parts stem from different laboratories: compare values within a part only. Changes are numbered by the printed parent chain.

Sample 1
Target: Histone acetyltransferase KAT6A, winged helix 2, GST fusion (KAT6A, Homo sapiens, UniProt Q92794, residues 85-181)
Technique: protein binding microarray
Molecule type: double-stranded DNA, one strand shown
Sample: in vitro
Tested at: not given
Setting: 8-mer, flanks averaged, mean of 2 arrays, mostly near background
Relative to: not given
Direction: higher = stronger binding
Quantity: E-score
Residues (chain): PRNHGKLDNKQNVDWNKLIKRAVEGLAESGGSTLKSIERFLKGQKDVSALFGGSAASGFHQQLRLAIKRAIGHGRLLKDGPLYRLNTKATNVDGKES
Strand = GGCAAGCA; value = 0.0105
Strand = CACACTGA; value = -0.06
Strand = CATGACCG; value = -0.04
Strand = CCTCGTGC; value = 0.164
Strand = ACAAGGTG; value = 0.0412
Strand = ACTTATGG; value = -0.148
Strand = CAGCAAAC; value = 0.147
Strand = AGTCCTGG; value = 0.0165
Strand = ATGTCGGC; value = -0.0581
Strand = AAACTGTA; value = 0.0248
Strand = CCCAGAGC; value = 0.0361
Strand = AGAGAATG; value = -0.186
Strand = CACCGCCC; value = 0.202
Strand = GACTGTGA; value = -0.112
Strand = GCCATCAC; value = -0.155

Sample 2
Target: CCND3, cyclin fold, Cln2 fusion (human)
Technique: yeast growth competition, sequencing
Sample: yeast
Setting: weak parent motif
Relative to: not given
Direction: higher = stronger binding
Quantity: normalised enrichment score
Starting sequence: PPP1R3F docking peptide (human); VAPRRVLFADEAL
Substitution = F8A; value = 0.0969
Substitution = F8L; value = 0.4
Substitution = P3A; value = 0.184
Substitution = L7A; value = 0.148
Substitution = V1A; value = 0.0928
Substitution = R5A; value = 0.121

Sample 3
Substance: PhoQ, residues 284 288 289 292 302 303 SIHLQL
Technique: Sort-seq
Item: YFP reporter
Sample: E. coli
Setting: PhoQ-PhoP variant library
Together with: 10 µM Mg2+
Relative to: high Mg2+ state
Direction: higher = stronger signaling
Quantity: fold induction
target = PhoP, residues 12 14 15 18 19 QQAYL (Escherichia coli, UniProt P23836); value = 19.4
target = PhoP, residues 12 14 15 18 19 LFHKL (Escherichia coli, UniProt P23836); value = 0.831
target = PhoP, residues 12 14 15 18 19 GMGLL (Escherichia coli, UniProt P23836); value = 1.63

Sample 4
Target: Sal-like protein 4, full length isoform A (SALL4, Homo sapiens, UniProt Q9UJQ4, residues 1-1053)
Sequence of UniProt Q9UJQ4 (whole entry, looked up): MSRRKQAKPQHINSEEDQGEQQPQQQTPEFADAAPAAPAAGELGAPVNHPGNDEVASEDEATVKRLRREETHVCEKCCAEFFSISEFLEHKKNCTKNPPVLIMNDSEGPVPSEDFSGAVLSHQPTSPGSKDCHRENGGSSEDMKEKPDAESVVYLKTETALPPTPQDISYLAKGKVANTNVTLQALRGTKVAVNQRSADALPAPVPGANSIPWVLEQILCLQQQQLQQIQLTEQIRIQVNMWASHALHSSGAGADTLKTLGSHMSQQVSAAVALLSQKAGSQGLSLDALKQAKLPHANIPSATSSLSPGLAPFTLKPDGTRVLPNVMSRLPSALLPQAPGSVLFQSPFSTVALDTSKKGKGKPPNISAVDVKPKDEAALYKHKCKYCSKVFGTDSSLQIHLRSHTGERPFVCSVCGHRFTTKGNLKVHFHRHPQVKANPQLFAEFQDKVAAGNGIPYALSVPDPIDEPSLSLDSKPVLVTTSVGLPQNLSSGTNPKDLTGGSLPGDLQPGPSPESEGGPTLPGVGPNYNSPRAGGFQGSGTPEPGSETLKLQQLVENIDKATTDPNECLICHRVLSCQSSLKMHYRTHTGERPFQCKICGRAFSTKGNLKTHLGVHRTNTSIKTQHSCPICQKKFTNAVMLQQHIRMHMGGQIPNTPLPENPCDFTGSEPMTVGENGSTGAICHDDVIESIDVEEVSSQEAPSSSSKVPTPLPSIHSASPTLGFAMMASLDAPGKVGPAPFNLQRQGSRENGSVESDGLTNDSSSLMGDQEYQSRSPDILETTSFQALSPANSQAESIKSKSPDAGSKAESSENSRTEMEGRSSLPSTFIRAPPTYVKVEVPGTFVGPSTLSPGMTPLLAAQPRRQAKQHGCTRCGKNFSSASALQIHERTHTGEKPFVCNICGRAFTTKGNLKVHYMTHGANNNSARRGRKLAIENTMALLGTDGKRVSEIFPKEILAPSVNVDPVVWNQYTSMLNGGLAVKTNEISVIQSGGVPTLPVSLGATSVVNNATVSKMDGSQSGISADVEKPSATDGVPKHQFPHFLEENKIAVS
Technique: universal PBM
Molecule type: double-stranded DNA, one strand shown
Sample: in vitro
Tested at: 600 nM
Setting: 8-mer, flanks averaged, mean of replicates
Direction: higher = stronger binding
Quantity: E-score
Strand = AAGAGATA; value = 0.177
Strand = ACTGGAAA; value = 0.104
Strand = CACTTGGG; value = -0.102
Strand = GACGTCTC; value = -0.118
Strand = ATTGCGCC; value = 0.086
Strand = GTGGGAAC; value = -0.215
Strand = AAGTTTAT; value = 0.347
Strand = ATCGTATC; value = 0.121
Strand = CAAGAAGA; value = 0.0583
Strand = CGCACAGC; value = -0.293
Strand = ACCCAACG; value = -0.0861
Strand = AGTCGACC; value = -0.205

Some of these lines once more (sample 4):
Strand = AAGAGATA; value = 0.177
Strand = AGTCGACC; value = -0.205
Strand = CGCACAGC; value = -0.293
Strand = AAGTTTAT; value = 0.347
